# Measured values of several laboratories.
# Lines come from different studies, so protocols differ. “And” joins repeats or separate records; there may be more than shown. ± gives the spread as reported.
Compound,assay,system,conditions,scale,measurement,result
COCCOCCOCCOCCOCCOCCOCCOCCC(=O)NCCCc1cc2cc3nc(cc4[nH]c(cc5nc(c(OC)c1[nH]2)C(=O)C5(C)C)cc4CCc1ccc(C(=O)O)cc1)CC3(C)C,,DMF,room temperature,,internal conversion yield,0.31
CCCCN1C(=O)c2cccc3c(NCCN4CCOCC4)ccc(c23)C1=O,,water,pH 6,reference: fluorescein/0.1 N NaOH,fluorescence quantum yield,0.22
"COc1cc(C)c(-c2ccc(O)c3c2C[C@@H](C)N[C@@H]3C)c2cccc(O)c12 (single isomer, unassigned)",metabolic stability,"male rat, liver microsomes","1 µM, 30 min",,compound remaining,36%
CC(C)[C@H](NC(=O)CNC(=O)[C@H](CCC(N)=O)NC(=O)[C@H](C)N)C(=O)O,,"human, plasma","intravenous infusion, 15 mg/kg/h, 2 h infusion, geometric mean",,t1/2,0.24 h
CC(C)[C@H](NC(=O)[C@@H]1CCCN1C(=O)[C@H](CCCNC(=N)N)NC(=O)[C@H](CS)NC(=O)[C@H](Cc1c[nH]c2ccccc12)NC(=O)[C@H](CCCNC(=N)N)NC(=O)[C@@H](Cc1ccccc1)NC(=O)[C@H](Cc1c[nH]cn1)NC(=O)[C@H](CCC(=O)O)NC(=O)[C@H](CS)NC(=O)[C@H](CS)NC(=O)COCCOCCNC(=O)[C@@H]1CC(=O)N[C@@H](CCCNC(=N)N)C(=O)NCC(=O)N[C@@H](CC(=O)O)C(=O)N[C@H](Cc2ccc(O)cc2)C(=O)N1)C(N)=O [technetium-99m labelled],,"nude mouse, M21 melanoma xenograft, skin","intravenous, 2 h",,tissue uptake,1.16 ± 0.38 %ID/g
O=C(CCCCC[N+]#[C][99Tc-5]([C]#[N+]CCCCCC(=O)N[C@H]1C(O)O[C@H](CO)[C@@H](O)[C@@H]1O)([C]#[N+]CCCCCC(=O)N[C@H]1C(O)O[C@H](CO)[C@@H](O)[C@@H]1O)([C]#[N+]CCCCCC(=O)N[C@H]1C(O)O[C@H](CO)[C@@H](O)[C@@H]1O)([C]#[N+]CCCCCC(=O)N[C@H]1C(O)O[C@H](CO)[C@@H](O)[C@@H]1O)[C]#[N+]CCCCCC(=O)N[C@H]1C(O)O[C@H](CO)[C@@H](O)[C@@H]1O)N[C@H]1C(O)O[C@H](CO)[C@@H](O)[C@@H]1O (stereo partly drawn),SPECT/CT,BALB/c nude mouse TE-1 xenograft,2 h,reference: tumour over non-tumour,tumour/non-tumour ratio,6.01 ± 1.37
Cc1[nH]c(/C=C2\C(=O)Nc3ccc(F)cc32)c(C)c1NC(=O)CCN1CCN(C)CC1,,dog plasma,"1.00 ng/mL nominal, three freeze-thaw cycles at -20 °C",,measured concentration,0.95 ng/mL
O=C([O-])CN1CCN(CC(=O)[O-])CCN(CC(=O)NCC2CCC(C(=O)NC(Cc3ccc4ccccc4c3)C(=O)NCCCCC(NC(=O)NC(CCC(=O)O)C(=O)O)C(=O)O)CC2)CCN(CC(=O)[O-])CC1.[44Sc+3] (stereo not drawn),"PET/CT dosimetry, OLINDA/EXM","human, spleen",,,residence time,0.018 h and 0.086 h and 0.083 h
COC(=O)c1ccc(-c2cn(Cc3cc(Cl)ccc3O[11CH3])nn2)cc1,PET/CT,"C57BL/6 mouse, lung",2 min,,peak uptake,1.39 %ID/cc
Cc1ccc(OCC(=O)O)cc1,,"beagle dog, male, plasma","oral gavage, 10 mg/kg of parent drug",,t1/2,4.77 h
CC(C)c1cnc(-c2cc(Cl)ccc2F)cc1Nc1ccncc1C(=O)NC(CO)CO,measured: Rash,solid tumour patients,"oral, dose not given, phase I monotherapy",,treatment-related adverse events,7.1%
Cn1c(=O)oc2ccc(-c3ccc(CC(C#N)NC(=O)C4CNCCCO4)c(F)c3)cc21 (stereo not drawn),,"human, plasma","40 mg once daily, steady state, geometric mean",,trough concentration,102 ng/mL
N=C(N)NCCC[C@@H]1NC(=O)[C@H](Cc2c[nH]c3ccccc23)NC(=O)[C@@H](CC2CCCCC2)NC(=O)[C@@H]2CCCN2C(=O)[C@@H](NC(=O)CCc2ccccc2)CCCNC1=O,,"C57BL/6J mice, spinal cord","intravenous, 1 mg/kg, two-compartment model",,apparent distributional clearance,21.9 ng/(min·ng/g)
COC(=O)c1ccc2c(c1)NC(=O)/C2=C(\Nc1ccc2c(c1)CCN2C(=O)CN1CCOCC1)c1ccccc1,,"beagle dog, blood","intravenous, 2 mg/kg",,Vd,5.54 L/kg
[11CH3]Nc1ccc(-c2nc3ccc(O)cc3o2)cn1,PET,cynomolgus monkey,,,brain exposure,~1 % injected radioactivity
CCCC[C@H](NC(=O)CNC(=O)CNC(=O)CN1CCN(CC(=O)O)CCN(CC(=O)O)CC1)C(=O)N[C@H]1CC(=O)NCCCC[C@@H](C(N)=O)NC(=O)[C@H](Cc2c[nH]c3ccccc23)NC(=O)[C@H](CCCNC(=N)N)NC(=O)[C@@H](Cc2ccccc2)NC(=O)[C@H](Cc2c[nH]cn2)NC1=O [gallium-67 labelled],,"C57 mice, female, B16/F1 melanoma, tumour over muscle","intravenous, 0.037 MBq, 24 h",,tumour to tissue uptake ratio,8.05
C=CC(=C)CC[C@]1(C)[C@H](C)C[C@H](O)[C@@]23C(=C[C@H](OC(=O)C(C)C)C[C@@H]12)[C@@H](OC(C)=O)O[C@H]3OC(C)=O,haemolysis,,500 µM,,haemolysis,22.3%
C[C@H](NC(=O)[C@H](C)NC(=O)[C@H](C)NC(=O)[C@H](CCCNC(=N)N)NC(=O)[C@H](CCCNC(=N)N)NC(=O)[C@H](C)NC(=O)[C@H](C)NC(=O)[C@H](C)NC(=O)[C@H](C)NC(=O)[C@H](CCCNC(=N)N)NC(=O)[C@H](CCCNC(=N)N)NC(=O)[C@H](C)NC(=O)[C@H](C)NC(=O)[C@H](C)NC(=O)[C@H](C)NC(=O)[C@H](CCCNC(=N)N)NC(=O)[C@H](CCCNC(=N)N)NC(=O)c1ccc2c(c1)C(=O)OC21c2ccc(O)cc2Oc2cc(O)ccc21)C(=O)N[C@@H](C)C(=O)N[C@@H](CCCNC(=N)N)C(=O)N[C@@H](CCCNC(=N)N)C(=O)O,,bovine cartilage explants,"30 µM, 24 h, with: 1 x PBS",,retained fraction,~77%
OCc1cn(Cc2ccc(-c3noc(-c4ccc(OCC[18F])c(C(F)(F)F)c4)n3)cc2)nn1,,"female Lewis rat, lung","intravenous, 30 min",,tissue uptake,1.96 ± 0.07 %ID/g
CC(C)C[C@@H](NC(=O)[C@H](NC(=O)[C@H]1CCCN1)[C@H](C)O)C(=O)N[C@H](Cc1c[nH]cn1)C(=O)N[C@@H](C(=O)N[C@H](Cc1c[nH]cn1)C(=O)N[C@H](CC(N)=O)C(=O)N[C@H](CCCNC(=N)N)C(=O)N[C@H](CCCNC(=N)N)C(=O)N[C@H](CCCNC(=N)N)C(=O)N[C@H](CCCNC(=N)N)C(=O)N[C@H](CCCNC(=N)N)C(N)=O)[C@H](C)O,,"Beagle dog, plasma","oral, 20 mg/kg, single dose",,MRT,40 ± 15 h
CCCCCCCCCCCCCCCC(=O)N[C@@H](CCCCN)C(=O)N[C@@H](CCCCN)C(=O)N[C@@H](CO)C(=O)N[C@@H](CCCNC(=N)N)C(=O)N[C@@H](C)C(=O)N[C@@H](CC(C)C)C(=O)N[C@@H](Cc1ccccc1)C(N)=O,,"cynomolgus monkey, female","intravenous infusion, 3 mg/kg daily, day 5, 1 h infusion days 1-4",,aPTT,26.8 ± 2.6 s
CCCC(CCC)NC(=O)c1ccc(O)c(OS(=O)(=O)O)c1,LC-MS extracted ion chromatogram,"Sprague-Dawley rat, male and female, pooled plasma","oral, 200 mg/kg, 1 h",,peak area,515000 cps
CC(C)(C)ONc1nc(Nc2ccnc(C(F)(F)F)c2)nc(-c2cccc(C(F)(F)F)n2)n1,,"female Balb/cA nude mice xenograft, tumour","oral, 18.05 mg/kg",,half-life,19.8 h
CCCCCC(O)C=CC1OC2OC(C1CC=CCCCC(=O)O)C2(F)F (stereo not drawn),,50 mM HCl buffer,"pH 1.80, 23 °C",,hydrolysis rate constant,5.46e-05 s⁻¹
COc1cccc(Cn2c(OC3CCN(C(=O)C4CC4)CC3)nc3c2c(=O)n(C)c(=O)n3C)c1,metabolic stability,"rat, liver microsomes",,,half-life,0.133 h
COc1cc(N(C)CCN(C)C)c(NC(=O)CCSCC(N)C(=O)O)cc1Nc1nccc(-c2cn(C3CC3)c3ccccc23)n1 (stereo not drawn),radio-HPLC,"human, feces","dose not given, 96 to 240 h, sample holds 16.61% dose",reference: sample radioactivity,share of radioactivity,4.48%
O=C(NCCCN(CCCCN(CCCNC(=O)c1cccc(=O)n1[O-])C(=O)c1cccc(=O)n1[O-])C(=O)c1cccc(=O)n1[O-])c1cccc(=O)n1[O-].[89Zr+4],radio-TLC,PBS,"5 d, pH 7.4, 37 °C, with: K^+ 10-fold excess",,intact complex,98.5 ± 2.2%
COc1cc(NC(C)=O)c2c(c1O)-c1c(OC)c(OC)cc3c1C(C2)N(C)CC3 (stereo not drawn),,"rat, plasma","100 µg/mL, 4 h, room temperature, short-term storage",,remaining compound,101 ± 3.7%
NC[C@@H](C(=O)Nc1ccc(-c2cn[nH]c2)cc1)c1ccccc1,OECD 405 eye irritation,"New Zealand White rabbit, eye","topical, 0.1%, 72 h (day 4), scale 0 to 2",direction not given,iris score,0
CCCCCCCC(=O)OC[C@H](NC(=O)[C@H](CO)NC(=O)CN)C(=O)N[C@@H](Cc1ccccc1)C(=O)N[C@@H](CC(C)C)C(=O)N[C@@H](CO)C(=O)N1CCC[C@H]1C(=O)N[C@@H](CCC(=O)O)C(=O)N[C@@H](Cc1cnc[nH]1)C(=O)N[C@@H](CCC(N)=O)C(=O)N[C@@H](CCCNC(=N)N)C(=O)N[C@H](C(=O)N[C@@H](CCC(N)=O)C(=O)N[C@@H](CCC(N)=O)C(=O)N[C@@H](CCCNC(=N)N)C(=O)N[C@@H](CCCCN)C(=O)N[C@@H](CCC(=O)O)C(=O)N[C@@H](CO)C(=O)N[C@@H](CCCCN)C(=O)N[C@@H](CCCCN)C(=O)N1CCC[C@H]1C(=O)N1CCC[C@H]1C(=O)N[C@@H](C)C(=O)N[C@@H](CCCCN)C(=O)N[C@@H](CC(C)C)C(=O)N[C@@H](CCC(N)=O)C(=O)N1CCC[C@H]1C(=O)N[C@@H](CCCNC(=N)N)C(=O)O)C(C)C,,chronic HFrEF patients,"intravenous infusion, 0.1 µg/kg/min, 30 min after infusion end, median",direction not given,hunger score,5
